Measurements of several laboratories.
Lines come from different studies, so protocols differ. Values joined by “and” are separate records of one study, mostly repeats; a detail may differ. ± marks the error that the study gave.
14-3-3 protein epsilon: 14-3-3 protein epsilon (Homo sapiens, UniProt P62258)
UniProt P62258, sequence (whole entry, looked up): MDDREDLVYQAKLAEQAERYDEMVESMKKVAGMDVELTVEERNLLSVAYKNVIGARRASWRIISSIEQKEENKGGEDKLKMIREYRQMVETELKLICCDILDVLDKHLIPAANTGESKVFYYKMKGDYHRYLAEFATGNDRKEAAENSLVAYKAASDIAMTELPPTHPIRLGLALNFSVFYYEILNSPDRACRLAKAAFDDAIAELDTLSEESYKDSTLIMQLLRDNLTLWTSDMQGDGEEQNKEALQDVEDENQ
Chymotrypsin-C S216A: Chymotrypsin-C (Homo sapiens, UniProt Q99895, S216A)
UniProt Q99895, sequence (whole entry, unmodified, looked up): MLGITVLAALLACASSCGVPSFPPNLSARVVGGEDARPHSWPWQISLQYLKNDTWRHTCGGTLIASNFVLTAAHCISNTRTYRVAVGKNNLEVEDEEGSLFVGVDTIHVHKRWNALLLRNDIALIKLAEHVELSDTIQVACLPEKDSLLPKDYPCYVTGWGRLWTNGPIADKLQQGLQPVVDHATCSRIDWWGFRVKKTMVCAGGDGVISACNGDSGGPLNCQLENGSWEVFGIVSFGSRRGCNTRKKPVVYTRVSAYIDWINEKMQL
UniProt P33913, sequence (whole entry, looked up): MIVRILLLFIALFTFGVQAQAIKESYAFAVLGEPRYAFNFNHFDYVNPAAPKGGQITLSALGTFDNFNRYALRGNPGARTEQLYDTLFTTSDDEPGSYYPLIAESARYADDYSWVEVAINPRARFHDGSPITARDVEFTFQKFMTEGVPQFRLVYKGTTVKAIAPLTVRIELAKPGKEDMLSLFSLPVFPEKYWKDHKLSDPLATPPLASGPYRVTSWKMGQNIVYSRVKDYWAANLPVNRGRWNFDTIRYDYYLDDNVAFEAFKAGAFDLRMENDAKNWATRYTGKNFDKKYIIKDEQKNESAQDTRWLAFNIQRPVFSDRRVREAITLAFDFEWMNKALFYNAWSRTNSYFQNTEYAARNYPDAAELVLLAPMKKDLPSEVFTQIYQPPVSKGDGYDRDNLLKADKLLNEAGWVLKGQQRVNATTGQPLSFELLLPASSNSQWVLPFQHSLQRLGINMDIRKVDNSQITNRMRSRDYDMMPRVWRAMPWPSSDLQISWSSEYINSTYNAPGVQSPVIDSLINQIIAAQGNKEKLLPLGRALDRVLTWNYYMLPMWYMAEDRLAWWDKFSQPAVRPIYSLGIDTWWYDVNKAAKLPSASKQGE
UniProt P31554, sequence (whole entry, looked up): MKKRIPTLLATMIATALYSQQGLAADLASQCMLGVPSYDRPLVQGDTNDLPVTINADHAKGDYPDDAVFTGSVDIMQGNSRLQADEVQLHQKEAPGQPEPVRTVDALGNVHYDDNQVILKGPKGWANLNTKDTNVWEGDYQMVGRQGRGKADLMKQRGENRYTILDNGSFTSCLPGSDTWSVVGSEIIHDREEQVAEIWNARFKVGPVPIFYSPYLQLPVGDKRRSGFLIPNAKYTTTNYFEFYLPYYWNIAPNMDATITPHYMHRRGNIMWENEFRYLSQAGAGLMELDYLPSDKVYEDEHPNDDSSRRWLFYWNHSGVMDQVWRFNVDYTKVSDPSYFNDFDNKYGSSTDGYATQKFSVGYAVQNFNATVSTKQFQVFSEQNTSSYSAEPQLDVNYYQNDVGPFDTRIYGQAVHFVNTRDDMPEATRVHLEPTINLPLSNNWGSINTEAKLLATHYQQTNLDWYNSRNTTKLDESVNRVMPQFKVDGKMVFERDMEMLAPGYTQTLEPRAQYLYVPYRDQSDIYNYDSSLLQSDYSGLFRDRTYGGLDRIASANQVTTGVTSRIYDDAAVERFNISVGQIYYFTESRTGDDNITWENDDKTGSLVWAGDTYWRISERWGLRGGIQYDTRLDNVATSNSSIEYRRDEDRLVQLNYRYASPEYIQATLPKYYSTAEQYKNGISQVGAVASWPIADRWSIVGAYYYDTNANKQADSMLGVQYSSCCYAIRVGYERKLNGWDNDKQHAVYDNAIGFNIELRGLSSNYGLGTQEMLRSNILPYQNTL
UniProt P09619, sequence (whole entry, looked up): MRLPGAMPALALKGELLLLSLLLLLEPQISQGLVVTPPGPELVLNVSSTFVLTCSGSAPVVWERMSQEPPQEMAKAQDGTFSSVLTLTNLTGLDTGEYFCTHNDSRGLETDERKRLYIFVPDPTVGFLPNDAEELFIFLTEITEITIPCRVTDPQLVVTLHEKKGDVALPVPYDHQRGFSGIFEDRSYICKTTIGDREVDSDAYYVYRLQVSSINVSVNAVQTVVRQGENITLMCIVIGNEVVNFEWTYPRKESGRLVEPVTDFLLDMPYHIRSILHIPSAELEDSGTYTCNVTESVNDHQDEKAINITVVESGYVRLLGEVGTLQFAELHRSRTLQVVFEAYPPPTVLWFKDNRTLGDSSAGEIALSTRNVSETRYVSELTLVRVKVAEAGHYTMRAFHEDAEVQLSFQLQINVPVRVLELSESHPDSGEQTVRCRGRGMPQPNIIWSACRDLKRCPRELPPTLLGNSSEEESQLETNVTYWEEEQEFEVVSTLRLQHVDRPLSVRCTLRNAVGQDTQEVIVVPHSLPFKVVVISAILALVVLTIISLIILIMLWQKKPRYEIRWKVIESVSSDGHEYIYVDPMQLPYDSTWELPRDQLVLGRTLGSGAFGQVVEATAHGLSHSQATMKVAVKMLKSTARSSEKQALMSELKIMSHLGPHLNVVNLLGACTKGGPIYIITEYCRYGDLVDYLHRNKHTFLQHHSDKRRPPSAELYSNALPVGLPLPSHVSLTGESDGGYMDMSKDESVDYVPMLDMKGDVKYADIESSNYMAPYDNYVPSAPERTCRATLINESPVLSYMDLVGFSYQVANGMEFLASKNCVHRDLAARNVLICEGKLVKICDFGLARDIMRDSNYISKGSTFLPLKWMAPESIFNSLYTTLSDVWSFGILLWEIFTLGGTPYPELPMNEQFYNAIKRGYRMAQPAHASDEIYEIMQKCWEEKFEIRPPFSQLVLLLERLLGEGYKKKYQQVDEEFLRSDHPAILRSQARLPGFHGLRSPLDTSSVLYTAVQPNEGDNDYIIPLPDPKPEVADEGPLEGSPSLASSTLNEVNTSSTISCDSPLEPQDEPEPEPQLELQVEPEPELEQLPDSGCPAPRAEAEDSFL
UniProt P0ADC1, sequence (whole entry, looked up): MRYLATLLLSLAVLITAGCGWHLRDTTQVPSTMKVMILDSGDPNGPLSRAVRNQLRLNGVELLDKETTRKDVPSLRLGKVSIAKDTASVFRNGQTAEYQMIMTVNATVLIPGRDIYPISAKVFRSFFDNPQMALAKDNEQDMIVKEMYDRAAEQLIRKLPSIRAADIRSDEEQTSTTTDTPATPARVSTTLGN
UniProt P00519, sequence (whole entry, looked up): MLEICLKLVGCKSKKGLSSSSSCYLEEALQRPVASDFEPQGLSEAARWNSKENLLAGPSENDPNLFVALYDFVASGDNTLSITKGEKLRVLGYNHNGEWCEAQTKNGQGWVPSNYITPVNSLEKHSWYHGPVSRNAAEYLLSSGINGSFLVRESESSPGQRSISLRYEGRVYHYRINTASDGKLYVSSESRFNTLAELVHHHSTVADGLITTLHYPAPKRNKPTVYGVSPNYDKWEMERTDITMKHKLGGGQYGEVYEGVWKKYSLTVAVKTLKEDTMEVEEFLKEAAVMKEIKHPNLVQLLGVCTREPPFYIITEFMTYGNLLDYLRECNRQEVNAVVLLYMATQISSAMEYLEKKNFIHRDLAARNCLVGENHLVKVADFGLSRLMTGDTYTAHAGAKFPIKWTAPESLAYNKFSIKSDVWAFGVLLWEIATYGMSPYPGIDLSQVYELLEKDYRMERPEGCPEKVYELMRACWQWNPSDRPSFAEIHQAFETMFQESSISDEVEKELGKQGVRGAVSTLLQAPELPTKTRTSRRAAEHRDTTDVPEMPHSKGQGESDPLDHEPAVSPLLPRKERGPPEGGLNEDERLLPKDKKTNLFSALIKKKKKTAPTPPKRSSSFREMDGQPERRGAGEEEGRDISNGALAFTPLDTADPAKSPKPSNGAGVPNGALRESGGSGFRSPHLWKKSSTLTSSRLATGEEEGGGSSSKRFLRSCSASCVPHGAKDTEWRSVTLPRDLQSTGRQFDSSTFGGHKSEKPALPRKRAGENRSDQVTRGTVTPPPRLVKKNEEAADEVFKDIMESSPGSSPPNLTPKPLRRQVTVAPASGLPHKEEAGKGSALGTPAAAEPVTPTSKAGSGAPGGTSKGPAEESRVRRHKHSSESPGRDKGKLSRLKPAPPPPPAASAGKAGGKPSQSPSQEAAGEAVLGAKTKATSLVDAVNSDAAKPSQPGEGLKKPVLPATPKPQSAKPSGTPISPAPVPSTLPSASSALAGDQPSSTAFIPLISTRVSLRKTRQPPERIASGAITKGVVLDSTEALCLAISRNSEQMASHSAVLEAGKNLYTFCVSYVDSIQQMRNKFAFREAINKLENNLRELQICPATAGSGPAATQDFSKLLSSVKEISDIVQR

`CSCC[C@H](NC(=O)CNC(=O)[C@H](CCCNC(=N)N)NC(=O)[C@H](C)NC(=O)[C@@H](NC(=O)[C@H](CCC(N)=O)NC(=O)[C@H](Cc1ccc(OP(=O)(O)O)cc1)NC(=O)[C@H](C)NC(=O)[C@H](CS)NC(=O)[C@H](CO)NC(=O)[C@@H](NC(=O)[C@H](CC(C)C)NC(=O)[C@H](CC(=O)O)NC(=O)[C@H](CCCCN)NC(=O)[C@H](CO)NC(=O)[C@H](CO)NC(=O)c1ccc2c(c1)C(=O)OC21c2ccc(N(C)C)cc2Oc2cc(N(C)C)ccc21)C(C)C)C(C)C)C(=O)N[C@@H](CCC(=O)O)C(=O)N[C@@H](CC(=O)O)C(=O)O` gave a Kd of 327 nM (Tyrosine-protein kinase ABL1, SH2 domain (ABL1, Homo sapiens, UniProt P00519); binding).
`CC(=O)N[C@@H](CCCNC(=N)N)C(=O)N[C@H](C(=O)N[C@@H](CCCCN)C(=O)N[C@@H](CO)C(=O)N[C@@H](CCCNC(=N)N)C(=O)N[C@H](C(=O)N[C@@H](Cc1c[nH]c2ccccc12)C(=O)N[C@@H](C)C(=O)N[C@@H](C)C(N)=O)[C@@H](C)OP(=O)(O)O)[C@@H](C)O` has a Kd of 84.2 nM (14-3-3 protein epsilon; binding, SPR).
With `CC(C)C[C@H](NC(=O)[C@@H]1CCCN1C(=O)[C@H](CCCCN)NC(=O)[C@@H](N)CO)C(=O)N1CCC[C@H]1C(=O)N[C@@H](CCC(=O)O)C(=O)N[C@H](C(=O)N[C@H](C(=O)N[C@@H](CC(=O)O)C(=O)N[C@@H](CCC(=O)O)C(=O)N[C@@H](Cc1ccc(O)cc1)C(=O)NCC(=O)NCCOCCOCCOCCOCCOCCOCCOCCOCCOCCOCCOCCOCCOCCOCCOCCOCCOCCOCCOCCOCCOCCOCCOCCOCCC(=O)N[C@@H](CCCCNC(=O)CC[C@H](C(=O)O)N1CCN(CC(=O)O)CCN(CC(=O)O)CC1)C(=O)N1CCN(CCCN(C)c2ccc3nccc(C(=O)NCC(=O)N4CC(F)(F)C[C@H]4C#N)c3c2)CC1)[C@@H](C)O)C(C)C` [copper-64 labelled] the Kd was 3.34 nM (FAP (Homo sapiens, UniProt Q12884); binding, 64Cu radioligand saturation; HT-1080 expressing hFAP; 1 h, 37 °C, with: FAPI-04 1 µM for nonspecific).
`O=C(O)c1ccc(O)c(O)c1`: Kd “no binding” (R15A mutant protein, Streptomyces coelicolor; isothermal titration calorimetry; 1.5 mM).
`CC[C@H](C)[C@H](NC(=O)[C@@H](NC(=O)[C@@H]1CCCN1C(=O)[C@@H](NC(=O)[C@@H]1CCCN1C(=O)[C@H](CCCCN)NC(=O)[C@H](CCCCN)NC(=O)[C@H](CO)NC(=O)CNC(=O)CCOCCOCCOCCOCc1cn(CCCNC(=O)CCCCC[N+]2=C(/C=C/C=C3/N(C)c4ccccc4C3(C)C)C(C)(C)c3ccccc32)nn1)C(C)C)[C@@H](C)CC)C(=O)N[C@@H](Cc1ccc(O)cc1)C(=O)N[C@H]1CSSC[C@@H](C(=O)N[C@@H](CCC(N)=O)C(=O)N[C@@H](CCCNC(=N)N)C(=O)N[C@@H](CCSC)C(=O)O)NC(=O)[C@H](CCCCN)NC(=O)CNC(=O)[C@H]([C@@H](C)O)NC(=O)[C@H](CCCNC(=N)N)NC(=O)[C@H](CCCNC(=N)N)NC(=O)[C@H](CC(N)=O)NC1=O` gave a Kd of 40 nM (lptE/lptD (Escherichia coli, UniProt P0ADC1+P31554); binding, fluorescence titration; pH 8, room temperature, 1% octyl glucoside).
The Kd of `CC[C@H](C)[C@H](NC(=O)[C@H](CO)NC(=S)Nc1ccc2c(c1)C(=O)OC21c2ccc(O)cc2Oc2cc(O)ccc21)C(=O)N[C@@H](CCC(=O)O)C(=O)N[C@@H](CCCCN)C(=O)NCC(=O)NCC(=O)N[C@@H](CCP(=O)(O)O)C(=O)N[C@@H](CC(C)C)C(=O)N1CCC[C@H]1C(=O)N[C@@H](CCCCN)C(=O)N[C@H](C(=O)N[C@@H](Cc1c[nH]c2ccccc12)C(=O)N[C@@H](CC(C)C)C(=O)N[C@H](C(=O)N1CCC[C@H]1C(=O)N[C@@H](CCCNC(=N)N)C(=O)O)C(C)C)C(C)C` is reported as 107000 nM (14-3-3 protein epsilon; binding, fluorescence anisotropy; pH 7.5, FITC-labelled phosphopeptide titration).
`CSCC[C@@H]1NC(=O)[C@H](CCSC)NC(=O)[C@H]([C@@H](C)O)NC(=O)[C@@H]2CSSC[C@@H]3NC(=O)[C@H]([C@@H](C)O)NC(=O)[C@H](CC(N)=O)NC(=O)[C@H](CSSC[C@@H](C(=O)N[C@@H](CC(=O)O)C(=O)N[C@@H](CCC(N)=O)C(=O)O)NC(=O)[C@H](CC(C)C)NC1=O)NC(=O)[C@H](CCCCN)NC(=O)[C@H](CC(=O)O)NC(=O)[C@H](CCCCN)NC(=O)[C@H](Cc1ccccc1)NC(=O)[C@H]([C@@H](C)O)NC(=O)[C@H]([C@@H](C)O)NC(=O)CNC(=O)[C@@H]1CCCN1C(=O)[C@H](CCC(=O)O)NC(=O)[C@@H](NC(=O)[C@@H](NC(=O)[C@@H](NC(=O)[C@H](CCC(=O)O)NC(=O)[C@H](CO)NC(=O)CN)C(C)C)[C@@H](C)O)CSSC[C@H](NC(=O)[C@H](CCCNC(=N)N)NC3=O)C(=O)NCC(=O)N[C@@H](CO)C(=O)N[C@@H](CC(=O)O)C(=O)NCC(=O)N[C@@H](CCCCN)C(=O)N[C@@H](CO)C(=O)N[C@@H](C)C(=O)N[C@@H](Cc1ccc(O)cc1)C(=O)N2` has a Kd of 5.06 ± 1.22 nM (Chymotrypsin-C S216A; competitive fluorescence polarization; 24 h, pH 8.0, with: FITC-labelled tracer).
With `O=C(N[C@@H]1c2ccccc2C[C@H]1N1CCCC1)c1ccc(-c2ccnc3[nH]ccc23)nc1` the Kd was 51.5 nM (Tyrosine-protein kinase JAK3, JH1 (JAK3, Homo sapiens, UniProt P52333); binding, competition with immobilised ligand).
For `CSCC[C@@H]1NC(=O)[C@H](CCSC)NC(=O)[C@H]([C@@H](C)O)NC(=O)[C@@H]2CSSC[C@@H]3NC(=O)[C@H]([C@@H](C)O)NC(=O)[C@H](CC(N)=O)NC(=O)[C@H](CSSC[C@@H](C(=O)N[C@@H](CC(=O)O)C(=O)N[C@@H](CCC(N)=O)C(=O)O)NC(=O)[C@H](CC(C)C)NC1=O)NC(=O)[C@H](CCCCN)NC(=O)[C@H](CC(=O)O)NC(=O)[C@H](CCCCN)NC(=O)[C@H](Cc1ccccc1)NC(=O)[C@H]([C@@H](C)O)NC(=O)[C@H]([C@@H](C)O)NC(=O)CNC(=O)[C@@H]1CCCN1C(=O)[C@H](CCC(=O)O)NC(=O)[C@@H](NC(=O)[C@@H](NC(=O)[C@@H](NC(=O)[C@H](CCC(=O)O)NC(=O)[C@H](CO)NC(=O)CN)C(C)C)[C@@H](C)O)CSSC[C@H](NC(=O)[C@H](CCCNC(=N)N)NC3=O)C(=O)NCC(=O)N[C@@H](CO)C(=O)N[C@@H](CC(=O)O)C(=O)NCC(=O)N[C@@H](CCCCN)C(=O)N[C@@H](CO)C(=O)N[C@@H](C)C(=O)N[C@@H](C)C(=O)N2`, the Kd was 1.32 ± 0.44 nM (Chymotrypsin-C S216A; competitive fluorescence polarization; 24 h, pH 8.0, with: FITC-labelled tracer).
With `C=CC[C@H]1OC(=O)CCNC(=O)[C@H](C)N(C)C(=O)[C@H]([C@@H](C)CC)N(C)C(=O)[C@H]([C@@H](C)CC)NC(=O)[C@@H]2[C@@H](C)CCN2C1=O` the Kd was 9060 nM (Platelet-derived growth factor receptor beta, extracellular domain (PDGFRB, Homo sapiens, UniProt P09619); SPR; 35 °C, extracellular domain immobilised).
The Kd of `CC(C)C[C@@H]1NC(=O)CNC(=O)[C@@H]2CSSC[C@@H]3NC(=O)[C@H]([C@@H](C)O)NC(=O)[C@H](CC(N)=O)NC(=O)[C@H](CSSC[C@@H](C(=O)N[C@@H](Cc4ccc(O)cc4)C(=O)N[C@@H](CCC(N)=O)C(=O)O)NC(=O)[C@H](CC(C)C)NC(=O)[C@H](C)NC1=O)NC(=O)[C@H](CCCCN)NC(=O)[C@H](CC(=O)O)NC(=O)[C@H](CCCCN)NC(=O)[C@H](Cc1ccccc1)NC(=O)[C@H]([C@@H](C)O)NC(=O)[C@H]([C@@H](C)O)NC(=O)CNC(=O)[C@@H]1CCCN1C(=O)[C@H](CCC(=O)O)NC(=O)[C@@H](NC(=O)[C@@H](NC(=O)[C@@H](NC(=O)[C@H](CCC(=O)O)NC(=O)[C@H](CO)NC(=O)CN)C(C)C)[C@@H](C)O)CSSC[C@H](NC(=O)[C@H](CCCNC(=N)N)NC3=O)C(=O)NCC(=O)N[C@@H](CO)C(=O)N[C@@H](CC(=O)O)C(=O)NCC(=O)N[C@@H](CCCCN)C(=O)N[C@@H](CO)C(=O)N[C@@H](C)C(=O)N[C@@H](Cc1ccc(O)cc1)C(=O)N2` is reported as 1.84 ± 0.73 nM (Chymotrypsin-C S216A; competitive fluorescence polarization; 24 h, pH 8.0, with: FITC-labelled tracer).
`CSCC[C@H](NC=O)C(=O)N[C@@H](CCCNC(=N)N)C(=O)N[C@H](C(=O)NCC(=O)N[C@@H](CC(N)=O)C(=O)N[C@@H](C)C(=O)N[C@@H](CC(N)=O)C(=O)NCC(=O)NCC(=O)N[C@@H](CCCCNC(=S)Nc1ccc2c(c1)C(=O)OC21c2ccc(O)cc2Oc2cc(O)ccc21)C(=O)O)[C@@H](C)O` has a Kd of 1310 nM and ~1310 nM (Uncharacterized protein YejA (yejA, Escherichia coli, UniProt P33913); binding, fluorescence polarisation; 25 °C, wild type).
For `O=C1NC2(CC2)COc2ncc(F)cc2[C@H]2COCCN2c2ccn3ncc1c3n2`, “alanine aminotransferase activity” read 22.6 ± 7.4 U/L (Sprague-Dawley rat, female, serum; oral, 5 mg/kg/day, 4 weeks daily, end of recovery period).
`CC[C@H](C)[C@H](NC(=O)[C@H](C)NC(=O)[C@H](CCCNC(=N)N)NC(=O)[C@H](CCCNC(=N)N)NC(=O)[C@H](Cc1ccc(O)cc1)NC(=O)[C@H](CCC(=O)O)NC(=O)[C@H](CCC(=O)O)NC(=O)[C@H](CCCNC(=N)N)NC(=O)[C@H](CCCNC(=N)N)NC(=O)[C@@H](N)CCCNC(=N)N)C(=O)N[C@@H](CC(N)=O)C(=O)NCC(=O)N[C@@H](CCC(N)=O)C(=O)N[C@@H](CC(=O)O)C(=O)N[C@@H](CCCNC(=N)N)C(=O)O` has a Kd of 6400 ± 300 nM (Membrane-associated guanylate kinase, WW and PDZ domain-containing protein 2 (Magi2, Mus musculus, UniProt Q9WVQ1); ITC; pH 8.0, 25 °C, with: tandem peptide).
`Nc1ncnc2c1ncn2[C@@H]1O[C@H](C[C@@H](N)CC[C@H](N)C(=O)O)[C@@H](O)[C@H]1O` gave a Kd of 1680 ± 215 nM (O-methyltransferase (Sorghum bicolor, UniProt A0A1B6PFV1, W279A); isothermal titration calorimetry; RSV-saturating).

Repeated from above:
`O=C(O)c1ccc(O)c(O)c1`: Kd “no binding” (R15A mutant protein, Streptomyces coelicolor; isothermal titration calorimetry; 1.5 mM).
